Results from different studies.
Lines come from different studies, so protocols differ. Values joined by “and” are separate records of one study, mostly repeats; a detail may differ. ± marks the error that the study gave.

CC(=O)N[C@@H](Cc1cnc[nH]1)C(=O)N[C@H](Cc1ccccc1)C(=O)N[C@@H](CCCNC(=N)N)C(=O)N[C@@H](Cc1c[nH]c2ccccc12)C(=O)NCCCOCCOCCOCCCNC(=O)COCC(=O)N[C@@H](Cc1cnc[nH]1)C(=O)N[C@H](Cc1ccccc1)C(=O)N[C@@H](CCCNC(=N)N)C(=O)N[C@@H](Cc1c[nH]c2ccccc12)C(N)=O
ambulatory activity (male mice; intracerebroventricular, 5 nmol, fasting-refeeding): no effect

COc1ccc(-c2csc(N/N=C(\C)c3ccc(O)cc3)n2)cc1
deviation from initial concentration (stock and working solutions; concentration not given, 3 months, refrigerated, long-term storage): < 10%

COc1cc(/C=C/C(=O)N2CCc3ccccc3C2)ccc1O[11CH3]
uptake (PET-CT imaging; C57BL/6 mouse, male, lung; intravenous, 5 min): 9.5 ± 0.15 %ID/cc

CCCCCCCCCCCCCCCC(=O)NCCOCCOCCOCCOCCOCCOCCOCCOCCC(=O)NCCCC[C@H](NC(=O)CNC(=O)[C@@H]1CSSC[C@H](N)C(=O)N[C@@H](Cc2ccc(O)cc2)C(=O)N[C@@H]([C@@H](C)CC)C(=O)N[C@@H](CCC(N)=O)C(=O)N[C@@H](CC(N)=O)C(=O)N1)C(=O)NCC(N)=O
brain to plasma AUC ratio (rat; subcutaneous depot, 10 mg/kg): 0.004

Cc1ccc(OCC(=O)N(Cc2cccs2)c2ccn[nH]2)cc1
half-life (male Sprague-Dawley rat, plasma; intravenous, 1 mg/kg, single dose): 0.25 h

CC12CC(c3ccc(S(C)(=O)=O)cc3)C3C4=C(CCC3C1CCC2(O)C(F)(F)C(F)(F)F)C(=O)C(O)CC4 (stereo not shown)
excreted amount in feces (human; oral, 5 mg, mean of six subjects; reference: dose): 0.6 to 7%

O=c1[nH]c(=O)n(C2OC(CO)C(O)C2O)cc1-n1nnc2c1CCC1C(CO)C1CC2 (mixture of isomers)
fluorescence quantum yield: 1.1%

CC(C)CCCC(C)CCCC(C)CCOC1OC[C@@H](O)[C@H](O)[C@H]1O (stereo partly shown)
interfacial tension (drop shape analysis; water/n-octane; solubility limit, 100 s, room temperature): 21.2 mN/m

O=C(c1cccc(N=Nc2ccc(OC3CC(N4CCCCC4)C3)cc2)c1)N1CCCC1 (stereo not shown)
cis isomer thermal half-life (Tris-HCl buffer, 1% DMSO-d6; 25 µM, pH 7.4, 20 ± 3 °C): 624 h

CC(C)C[C@@H](NC(=O)[C@H](NC(=O)[C@H]1CCCN1)[C@H](C)O)C(=O)N[C@H](Cc1c[nH]cn1)C(=O)N[C@@H](C(=O)N[C@H](Cc1c[nH]cn1)C(=O)N[C@H](CC(N)=O)C(=O)N[C@H](CCCNC(=N)N)C(=O)N[C@H](CCCNC(=N)N)C(=O)N[C@H](CCCNC(=N)N)C(=O)N[C@H](CCCNC(=N)N)C(=O)N[C@H](CCCNC(=N)N)C(N)=O)[C@H](C)O
concentration (aged Beagle dogs, CSF; oral daily, 30 mg/kg, 1 h after dose, one month): 5 ng/mL

O=C(O)CCC(NC(=O)NC(CCCCNC(=O)C(Cc1ccc2ccccc2c1)NC(=O)C1CCC(CNC(=S)Nc2ccc(CC(CN(CC(=O)O)C3CCCCC3N(CC(=O)O)CC(=O)O)N(CC(=O)O)CC(=O)O)cc2)CC1)C(=O)O)C(=O)O (stereo not shown)
liver and spleen uptake (68Ga PET/CT; human; intravenous, 3 nmol; reference: HBED-CC conjugate): ~2 fold

COc1cc([O-])c(C=NCCCN(C)CCN(C)CCCN=Cc2c([O-])cc(OC)cc2OC)c(OC)c1.[67Ga+3]
tissue uptake ratio (rat; intravenous, 2 h; reference: heart over liver): 2.7 ± 0.3

COc1cc2c(cc1OC)CN(CCCCn1ccc3cc(OCC[18F])ccc31)C2
uptake (ICR mice, male, small intestine; intravenous, 120 min): 20.5 ± 1.33 %ID/organ

CN(C)C(=O)c1ccnc(N2Cc3cn(Cc4ccc(F)cc4F)nc3C2)n1
brain half-life (Sprague-Dawley rat, brain; dose not given): > 2.5 h

C[C@H]1CN(C(=O)c2cn(-c3ccnc(N)n3)c3cc(C#CC4(O)CCCCC4)ccc23)CCN1
AUC(0-inf) (CD-1 mouse, plasma; intravenous, 1 mg/kg): 266 ng·h/mL

CC(C)(O)c1ncc([S@](N)(=O)=NC(=O)Nc2c3c(cc4c2CCC4)CCC3)s1
half-life (healthy human volunteers, plasma; oral, 25 mg twice daily, day 14, fed, enteric-coated tablet): 10.4 h

CCC/C(=C\C1=C(OC)C(=O)c2ccccc2C1=O)C(=O)NOC
AUC(0-inf) (mouse, plasma; oral, 25 mg/kg): 6100 ng·h/mL

O=S1(=O)CC2CCCCC2CS1 (stereo not shown)
association constant (phase solubility; water; 25.0 °C, added: hydroxypropyl-β-cyclodextrin): 81 M⁻¹

N=C(N)NCCC[C@@H]1NC(=O)[C@H](Cc2c[nH]c3ccccc23)NC(=O)[C@@H](CC2CCCCC2)NC(=O)[C@@H]2CCCN2C(=O)[C@@H](NC(=O)CCc2ccccc2)CCCNC1=O
apparent total clearance (CL/F) (C57BL/6J mice, spinal cord; intravenous, 1 mg/kg, two-compartment model): 1.63 ng/(min·ng/g)

COc1ccc(NC(=O)[C@H](CCCCN)NC(=O)c2cc(NC(=O)[C@H](CCCCN)NC(=O)c3cc(NC(=O)[C@H](CCCCN)NC(=O)c4cc(NC(=O)[C@@H](N)CCCCN)ccc4OC)ccc3OC)ccc2OC)cc1C(=O)NCCC(=O)O
association midpoint concentration (UV-vis λmax shift; TBS; pH 7.4, monomer-hexamer fit, added: NaCl 0.15 M): 0.06 mM

CN(CCCN=Cc1ccccc1[O-])CCN(C)CCCN=Cc1ccccc1[O-].[67Ga+3]
tissue uptake ratio (rat; intravenous, 2 h; reference: heart over liver): 10.9 ± 2.2

O=C([O-])c1cccc(CN(CCN(Cc2cn(Cc3ccccc3)nn2)Cc2cccc(C(=O)[O-])n2)Cc2cn(Cc3ccccc3)nn2)n1.[64Cu+2]
tracer uptake (mouse, liver; intravenous, 24 h): ~8 %ID/g and 8.1 %ID/g

CC[C@@H](C)[C@@H](NC(=O)[C@@H](C)NC(=O)[C@@H](CCCCN)NC(=O)[C@@H](CC(C)C)NC(=O)[C@@H](CC(C)C)NC(=O)[C@H](NC(=O)[C@@H](CCCCN)NC(=O)[C@@H](CC(C)C)NC(=O)[C@@H](CCCCN)NC(=O)[C@@H](CCCCN)NC(=O)[C@@H](CCCCN)NC(=O)[C@@H](CCCCN)NC(=O)[C@@H](C)NC(=O)[C@@H](CCCCN)NC(=O)[C@@H](CO)NC(=O)[C@@H](Cc1ccccc1)NC(=O)[C@H](NC(=O)[C@@H](CCCCN)NC(=O)[C@@H](CC(C)C)NC(=O)[C@@H](Cc1ccccc1)NC(=O)[C@@H](CO)NC(=O)[C@@H](CCCCN)NC(=O)[C@@H](Cc1c[nH]c2ccccc12)NC(=O)[C@@H](CCCCN)NC(C)=O)[C@H](C)O)[C@H](C)O)C(=O)N[C@H](CO)C(=O)N[C@H](CCCCN)C(N)=O
helical content (circular dichroism; 50% trifluoroethanol buffer; 5 °C; reference: reference peptide in TFE): 97%

NC[C@@H](C(=O)Nc1ccc(-c2cn[nH]c2)cc1)c1ccccc1
chemosis score (OECD 405 eye irritation; New Zealand White rabbit, eye; topical, 0.1%, 48 h (day 3), scale 0 to 4; direction not given): 0

CCCC[C@H](NC(C)=O)C(=O)N[C@H]1CC(=O)NCCCC[C@@H](C(=O)N[C@@H](C(=O)N2CCC[C@@H]2C(N)=O)C(C)C)NC(=O)[C@H](Cc2c[nH]c3ccccc23)NC(=O)[C@H](CCCN=C(N)N)NC(=O)[C@@H](Cc2ccc3ccccc3c2)NC(=O)[C@@H]2CCCN2C1=O
AUC (Beagle dog, both sexes, plasma; subcutaneous, once daily, 0.75 mg/kg, day 5): 11600 ± 1500 ng·h/mL

CC(C)[C@H](NC(=O)CNC(=O)[C@H](CCC(N)=O)NC(=O)[C@H](C)N)C(=O)O
Cmax (LC-MS/MS; human, male, plasma; intravenous, 30 mg/kg three times daily, day 2, first dose, 10 min infusion, geometric mean): 4810 ng/mL

CNc1cc(OC)c(Nc2nccc(-c3cn(C4CC4)c4ccccc34)n2)cc1NC(=O)CCSCC(NC(C)=O)C(=O)O (stereo not shown)
excreted amount (radio-HPLC, co-eluting peaks pooled; human, urine; 0 to 96 h, sample holds 4.16% dose; reference: dose): 0.07%

CC(C)N(P(c1ccccc1)c1ccccc1)P(c1ccccc1)c1ccccc1.Cc1ccc(C(C)C)cc1.F[B-](F)(F)F.[Cl][Ru+]
absorption half-life (refers to: ruthenium; BALB/c nude mice, serum; ip, 5 mg/kg): 0.5 h

COC(=O)C(c1ccccc1Cl)N1CCC(SCC(=O)c2cccc(OC)c2)C(=CC(=O)O)C1 (mixture of isomers)
storage stability time (feline citrate plasma; -80 °C): ≥ 9 months

Cn1c(=O)oc2ccc(-c3ccc(CC(C#N)NC(=O)C4CNCCCO4)c(F)c3)cc21 (stereo not shown)
bacterial test positive incidence (human; oral, 20 mg once daily, TEAE, multiple ascending dose): 0%

CC(C)[C@H](NC(=O)[C@@H]1CCCN1C(=O)[C@H](CCCNC(=N)N)NC(=O)[C@H](CS)NC(=O)[C@H](Cc1c[nH]c2ccccc12)NC(=O)[C@H](CCCNC(=N)N)NC(=O)[C@@H](Cc1ccccc1)NC(=O)[C@H](Cc1c[nH]cn1)NC(=O)[C@H](CCC(=O)O)NC(=O)[C@H](CS)NC(=O)[C@H](CS)NC(=O)[C@@H]1CC(=O)N[C@@H](CCCNC(=N)N)C(=O)NCC(=O)N[C@@H](CC(=O)O)C(=O)N[C@H](Cc2ccc(O)cc2)C(=O)N1)C(N)=O [technetium-99m labelled]
tumour to tissue ratio (C57 mouse, female, B16/F1 melanoma; intravenous, 0.037 MBq, 24 h; reference: tumour over blood): 71.8

COc1cc(C(=O)COC(=O)CCCN)cc(OC)c1O
singlet lifetime (pump-probe transient absorption; 10% acetonitrile in water): 3.7 ps

CC(=O)N[C@H](CC(=O)O)C(=O)N[C@H](Cc1c[nH]c2ccccc12)C(=O)N[C@H](Cc1ccccc1)C(=O)N[C@H](CCCCN)C(=O)N[C@H](C)C(=O)N[C@H](Cc1ccccc1)C(=O)N[C@H](Cc1ccc(O)cc1)C(=O)N[C@H](CC(=O)O)C(=O)N[C@H](CCCCN)C(=O)N[C@@H](C(=O)N[C@H](C)C(=O)N[C@H](CCC(=O)O)C(=O)N[C@H](CCCCN)C(=O)N[C@H](Cc1ccccc1)C(=O)N[C@H](CCCCN)C(=O)N[C@H](CCC(=O)O)C(=O)N[C@H](C)C(=O)N[C@H](Cc1ccccc1)C(N)=O)C(C)C
Cmax (statin-treated high-risk CHD men, plasma; oral, 100 mg daily, day 13, 0 to 8 h, mean, undetectable set to 0): 2.27 ng/mL

CNc1cc(OC)c(Nc2nccc(-c3cn(C4CC4)c4ccccc34)n2)cc1NC(=O)CCSCC(N)C(=O)O (stereo not shown)
excreted amount (radio-HPLC, co-eluting peaks pooled; human, feces; 0 to 240 h, sample holds 81.99% dose; reference: dose): 6.76%
